Measurements from different studies.
Each line is one published result; not all experiments were run side by side. Values joined by “and” are separate records of one study, mostly repeats; a detail may differ. Numbers after ± are the reported error.
U2AF2: U2AF2 148-342 (Homo sapiens, UniProt P26368)
Sequence of UniProt P26368 (whole entry, looked up): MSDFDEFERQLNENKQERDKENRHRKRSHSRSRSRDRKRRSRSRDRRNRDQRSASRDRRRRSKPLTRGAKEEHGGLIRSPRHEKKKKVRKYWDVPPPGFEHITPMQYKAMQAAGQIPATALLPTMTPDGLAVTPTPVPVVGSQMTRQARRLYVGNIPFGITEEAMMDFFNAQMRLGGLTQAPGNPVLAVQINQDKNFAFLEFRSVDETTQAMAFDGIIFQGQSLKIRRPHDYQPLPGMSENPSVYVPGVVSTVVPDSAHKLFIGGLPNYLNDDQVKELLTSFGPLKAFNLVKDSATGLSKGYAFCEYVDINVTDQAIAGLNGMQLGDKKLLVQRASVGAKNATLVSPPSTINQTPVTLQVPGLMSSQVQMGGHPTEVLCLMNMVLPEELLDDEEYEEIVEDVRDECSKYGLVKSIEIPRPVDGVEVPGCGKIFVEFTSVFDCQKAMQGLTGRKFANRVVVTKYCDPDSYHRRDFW
B1: mycE 1-399 (Micromonospora griseorubida, UniProt Q83WF2); chain MTAQTEFDEATVQDVVRLAGGHDSELRELTQKYDPAMISRLLVAEILSRCPPPSNDTPVLVELAIVHGSERFRHFLRVVRDSPIRPVGADEGFVGMLVEYELTELLRELFGVTHERPAGVRGTKLFPYLTDDEEAVEQIGTYLLAAQQGTEAVLAGCGSRKPDLSELSSRYFTPKFGFLHWFTPHYDRHFRDYRNQQVRVLEIGVGGYKHPEWGGGSLRMWKSFFPRGQIYGLDIMDKSHVDELRIRTIQGDQNDAEFLDRIARRYGPFDIVIDDGSHINAHVRTSFAALFPHVRPGGLYVIEDMWTAYWPGFGGQADPQECSGTSLGLLKSLIDAIQHQELPSDPNRSPGYVDRNIVGLHVYHNVAFVEKGRNDEGGIPTWIPRDFESLVQASSGGAT
B2: tnsC 1-503 (Escherichia coli, UniProt P05846); sequence looked up; chain MSATRIQAVYRDTGVEAYRDNPFIEALPPLQESVNSAASLKSSLQLTSSDLQKSRVIRAHTICRIPDDYFQPLGTHLLLSERISVMIRGGYVGRNPKTGDLQKHLQNGYERVQTGELETFRFEEARSTAQSLLLIGCSGSGKTTSLHRILATYPQVIYHRELNVEQVVYLKIDCSHNGSLKEICLNFFRALDRALGSNYERRYGLKRHGIETMLALMSQIANAHALGLLVIDEIQHLSRSRSGGSQEMLNFFVTMVNIIGVPVMLIGTPKAREIFEADLRSARRGAGFGAIFWDPIQQTQRGKPNQEWIAFTDNLWQLQLLQRKDALLSDEVRDVWYELSQGVMDIVVKLFVLAQLRALALGNERITAGLLRQVYQDELKPVHPMLEALRSGIPERIARYSDLVVPEIDKRLIQLQLDIAAIQEQTPEEKALQELDTEDQRHLYLMLKEDYDSSLLIPTIKKAFSQNPTMTRQKLLPLVLQWLMEGETVVSELEKPSKSKKVS
B3: encD (Myxococcus xanthus, UniProt Q1D9P3); sequence looked up; chain MAKNSNPSAFDRDFGYLMPFLDRVAAAASDLEDASARAELTRLMVEEKARWQRIQELLGGAGGRGAAAPTPAREAPAEAPRLARGSADELHEAAPFATGLTVGSLRGSR
B4: CALCOCO2 1-316 (Homo sapiens, UniProt Q13137); chain MEETIKDPPTSAVLLDHCHFSQVIFNSVEKFYIPGGDVTCHYTFTQHFIPRRKDWIGIFRVGWKTTREYYTFMWVTLPIDLNNKSAKQQEVQFKAYYLPKDDEYYQFCYVDEDGVVRGASIPFQFRPENEEDILVVTTQGEVEEIEQHNKELCKENQELKDSCISLQKQNSDMQAELQKKQEELETLQSINKKLELKVKEQKDYWETELLQLKEQNQKMSSENEKMGIRVDQLQAQLSTQEKEMEKLVQGDQDKTEQLEQLKKENDHLFLSLTEQRKDQKKLEQTVEQMKQNETTAMKKQQELMDENFDLSKRLSE
B5: NUMA1 1-705 (Homo sapiens, UniProt Q14980); LD555 dye on C-terminal SNAP; sequence looked up; chain MTLHATRGAALLSWVNSLHVADPVEAVLQLQDCSIFIKIIDRIHGTEEGQQILKQPVSERLDFVCSFLQKNRKHPSSPECLVSAQKVLEGSELELAKMTMLLLYHSTMSSKSPRDWEQFEYKIQAELAVILKFVLDHEDGLNLNEDLENFLQKAPVPSTCSSTFPEELSPPSHQAKREIRFLELQKVASSSSGNNFLSGSPASPMGDILQTPQFQMRRLKKQLADERSNRDELELELAENRKLLTEKDAQIAMMQQRIDRLALLNEKQAASPLEPKELEELRDKNESLTMRLHETLKQCQDLKTEKSQMDRKINQLSEENGDLSFKLREFASHLQQLQDALNELTEEHSKATQEWLEKQAQLEKELSAALQDKKCLEEKNEILQGKLSQLEEHLSQLQDNPPQEKGEVLGDVLQLETLKQEAATLAANNTQLQARVEMLETERGQQEAKLLAERGHFEEEKQQLSSLITDLQSSISNLSQAKEELEQASQAHGARLTAQVASLTSELTTLNATIQQQDQELAGLKQQAKEKQAQLAQTLQQQEQASQGLRHQVEQLSSSLKQKEQQLKEVAEKQEATRQDHAQQLATAAEEREASLRERDAALKQLEALEKEKAAKLEILQQQLQVANEARDSAQTSVTQAQREKAELSRKVEELQACVETARQEQHEAQAQVAELELQLRSEQQKATEKERVAQEKDQLQEQLQ
B6: irisin mature, soluble (UniProt Q8NAU1); sequence looked up; chain DSPSAPVNVTVRHLKANSAVVSWDVLEDEVVIGFAISQQKKDVRMLRFIQEVNTTTRSCALWDLEEDTEYIVHVQAISIQGQSPASEPVLFKTPREAEKMASKNKDEVTMKE
B7: PCK1 S62D/T66E (Arabidopsis thaliana, UniProt Q9T074); sequence looked up; chain MSAGNGNATNGDGGFSFPKGPVMPKITTGAAKRGSGVCHDDSGPTVNATTIDELHSLQKKRDAPTEPINQNAAAAFAAVSEEERQKIQLQSISASLASLTRESGPKVVRGDPAEKKTDGSTTPAYAHGQHHSIFSPATGAVSDSSLKFTHVLYNLSPAELYEQAIKYEKGSFITSNGALATLSGAKTGRAPRDKRVVRDATTEDELWWGKGSPNIEMDEHTFMVNRERAVDYLNSLEKVFVNDQYLNWDPENRIKVRIVSARAYHSLFMHNMCIRPTQEELESFGTPDFTIYNAGQFPCNRYTHYMTSSTSVDLNLARREMVILGTQYAGEMKKGLFSVMHYLMPKRRILSLHSGCNMGKDGDVALFFGLSGTGKTTLSTDHNRYLIGDDEHCWTETGVSNIEGGCYAKCVDLSREKEPDIWNAIKFGTVLENVVFDEHTREVDYSDKSVTENTRAAYPIEFIPNAKIPCVGPHPTNVILLACDAFGVLPPVSKLNLAQTMYHFISGYTALVAGTEDGIKEPTATFSACFGAAFIMLHPTKYAAMLAEKMKSQGATGWLVNTGWSGGSYGVGNRIKLAYTRKIIDAIHSGSLLKANYKKTEIFGFEIPTEIEGIPSEILDPVNSWSDKKAHKDTLVKLGGLFKKNFEVFANHKIGVDGKLTEEILAAGPIF
B8: Pld3 63-488 (Mus musculus, UniProt O35405); sequence looked up; chain GDLHLFGPNQRPAPCYDPCEAVLVESIPEGLEFPNATTSNPSTSQAWLGLLAGAHSSLDIASFYWTLTNNDTHTQEPSAQQGEEVLQQLQALAPRGVKVRIAVSKPNGPLADLQSLLQSGAQVRMVDMQKLTHGVLHTKFWVVDQTHFYLGSANMDWRSLTQVKELGVVMYNCSCLARDLTKIFEAYWFLGQAGSSIPSTWPRSFDTRYNQETPMEICLNGTPALAYLASAPPPLCPSGRTPDLKALLNVVDSARSFIYIAVMNYLPTMEFSHPRRFWPAIDDGLRRAAYERGVKVRLLISCWGHSDPSMRSFLLSLAALHDNHTHSDIQVKLFVVPTDESQARIPYARVNHNKYMVTERASYIGTSNWSGSYFTETAGTSLLVTQNGHGGLRSQLEAVFLRDWESPYSHDLDTSANSVGNACRLL
B9: fnr (Escherichia coli, UniProt P0A9E5); sequence looked up; chain MIPEKRIIRRIQSGGCAIHCQDCSISQLCIPFTLNEHELDQLDNIIERKKPIQKGQTLFKAGDELKSLYAIRSGTIKSYTITEQGDEQITGFHLAGDLVGFDAIGSGHHPSFAQALETSMVCEIPFETLDDLSGKMPNLRQQMMRLMSGEIKGDQDMILLLSKKNAEERLAAFIYNLSRRFAQRGFSPREFRLTMTRGDIGNYLGLTVETISRLLGRFQKSGMLAVKGKYITIENNDALAQLAGHTRNVA
B10: ddrC 1-98 (Deinococcus radiodurans, UniProt Q9RYE6); sequence looked up; chain MKNAPLTLNFGSVRLPVSADGLLHAPTAQQQLGLTQSWEAALVEHGLPETYRDFGAGPEAAVSVPDFVALAFALDTPEARRWQKRARELLARAMQGDV
B11: S100B (Homo sapiens, UniProt P04271); sequence looked up; chain MSELEKAMVALIDVFHQYSGREGDKHKLKKSELKELINNELSHFLEEIKEQEVVDKVMETLDNDGDGECDFQEFMAFVAMVTTACHEFFEHE
B12: Pah F80A (Rattus norvegicus, UniProt P04176); sequence looked up; chain MAAVVLENGVLSRKLSDFGQETSYIEDNSNQNGAISLIFSLKEEVGALAKVLRLFEENDINLTHIESRPSRLNKDEYEFATYLDKRTKPVLGSIIKSLRNDIGATVHELSRDKEKNTVPWFPRTIQELDRFANQILSYGAELDADHPGFKDPVYRARRKQFADIAYNYRHGQPIPRVEYTEEEKQTWGTVFRTLKALYKTHACYEHNHIFPLLEKYCGFREDNIPQLEDVSQFLQTCTGFRLRPVAGLLSSRDFLGGLAFRVFHCTQYIRHGSKPMYTPEPDICHELLGHVPLFSDRSFAQFSQEIGLASLGAPDEYIEKLATIYWFTVEFGLCKEGDSIKAYGAGLLSSFGELQYCLSDKPKLLPLELEKTACQEYSVTEFQPLYYVAESFSDAKEKVRTFAATIPRPFSVRYDPYTQRVEVLDNTQQLKILADSINSEVGILCNALQKIKS
B13: cfbA 1-143 S11W (Methanocaldococcus jannaschii, UniProt Q58380); chain MEALVLVGHGWRLPYSKELLVKLAEKVKERNLFPIVEIGLMEFSEPTIPQAVKKAIEQGAKRIIVVPVFLAHGIHTTRDIPRLLGLIEDNHEHHHEHSHHHHHHHHHEHEKLEIPEDVEIIYREPIGADDRIVDIIIDRAFGR
B14: phage phi29 gene 12 product D4 domain 692-854 D701G/S777N/G817S (bacteriophage phi29, UniProt P20345); sequence looked up; chain DFAEYFESLGGQVIETGYLVTLEKGKIRKAEKGEKIIGVISETAGFVLGESSFEWQGAVLKNEFGGIIYEEVTTEDGVKFKRPLPNPDFDPNKNYIPRSQRREWHVVGLLGQIAVRIDETVKQGHSIDAVGGVATDGDNFIVQEITTPYTKEKGYGVAIVLVK
Sequence of UniProt P29055 (whole entry, looked up): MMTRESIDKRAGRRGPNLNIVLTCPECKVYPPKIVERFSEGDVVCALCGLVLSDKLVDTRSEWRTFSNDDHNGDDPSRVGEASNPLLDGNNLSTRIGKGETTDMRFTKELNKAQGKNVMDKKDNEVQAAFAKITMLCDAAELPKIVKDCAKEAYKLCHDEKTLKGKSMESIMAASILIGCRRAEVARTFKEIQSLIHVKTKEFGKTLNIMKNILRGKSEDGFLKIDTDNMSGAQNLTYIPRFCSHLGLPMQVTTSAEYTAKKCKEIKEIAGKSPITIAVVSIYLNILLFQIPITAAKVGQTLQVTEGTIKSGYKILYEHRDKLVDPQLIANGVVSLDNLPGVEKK
Sequence of UniProt Q9H477 (whole entry, looked up): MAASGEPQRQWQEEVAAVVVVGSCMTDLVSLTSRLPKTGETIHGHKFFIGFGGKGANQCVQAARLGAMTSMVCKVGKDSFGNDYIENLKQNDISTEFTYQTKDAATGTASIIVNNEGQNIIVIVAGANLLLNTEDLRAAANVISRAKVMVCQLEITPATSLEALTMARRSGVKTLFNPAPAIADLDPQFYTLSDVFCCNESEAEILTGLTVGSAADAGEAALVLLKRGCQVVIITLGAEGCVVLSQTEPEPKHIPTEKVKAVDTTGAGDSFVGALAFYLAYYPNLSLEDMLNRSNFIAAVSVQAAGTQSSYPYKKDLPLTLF

| Substance | target or system | assay | test system | conditions | measurement | value |
| --- | --- | --- | --- | --- | --- | --- |
| B1 (mycE 1-399) | itself | SEC |  |  | subunits per oligomer | 4 |
| CCCUUCGUC (ssRNA) | U2AF2 | sequencing of bound RNA | RNA | motif only | Kd | 620 nM |
| B2 (tnsC 1-503) | itself | dynamic light scattering |  | added: ATP | subunits per oligomer | 2 |
| B3 (encD) | itself | AUC |  | 20 °C | subunits per oligomer | 2 |
| B4 (CALCOCO2 1-316) | itself | AUC (sedimentation velocity) |  |  | subunits per oligomer | 2 |
| GUUUUCUUC (ssRNA) | U2AF2 | sequencing of bound RNA | RNA | motif only | Kd | 4490 nM |
| Gm4951 (Mus musculus, UniProt Q3UED7) | itself | mass photometry |  | added: GDP | subunits per oligomer | 2 |
| B5 (NUMA1 1-705) | itself | mass photometry |  |  | subunits per oligomer | 2 |
| B6 (irisin mature, soluble) | itself | SEC |  |  | subunits per oligomer | 2 |
| B7 (PCK1 S62D/T66E) | itself | native PAGE |  |  | subunits per oligomer | 6 and 12 |
| VSRVSREELEDRFLRLHDENILLKQHARKQEDKIKRMATKLIRLVNDKKRYERVGG (Rpgrip1l 42-97 (Mus musculus, UniProt Q8CG73); sequence looked up) | itself | SEC-MALS |  |  | subunits per oligomer | 2 |
| B8 (Pld3 63-488) | itself | X-ray crystallography |  |  | subunits per oligomer | 2 |
| B9 (fnr) | itself | SEC-SAXS |  |  | subunits per oligomer | 2 |
| B10 (ddrC 1-98) | itself | SEC-MALS |  |  | subunits per oligomer | 1.84 ± 0.11 n-mer |
| RBKS (Homo sapiens, UniProt Q9H477) | itself | mass photometry |  |  | subunits per oligomer | 2 |
| TCCTGAAGGGGCGCCCTAGCTTGGTCCTATCGTCGTCAAGTCAATCGGTCC (dsDNA; 5'-amino-C6 primer) | SUA7 full length assumed (Saccharomyces cerevisiae, UniProt P29055) | array | double-stranded DNA, one strand shown | TFIIB alone | Kd | 4.91 ± 1.2 nM |
| B11 (S100B) | itself | AUC |  |  | subunits per oligomer | 2 |
| B12 (Pah F80A) | itself | native gel |  |  | subunits per oligomer | 2 |
| B13 (cfbA 1-143 S11W) | itself | SEC |  |  | subunits per oligomer | 2 |
| B14 | itself | crystal structure |  |  | subunits per oligomer | 3 |
